# Experimental data gathered from unrelated publications.
# Protocols differ between the studies behind these lines. Values joined by “and” are separate records of one study, mostly repeats; a detail may differ. ± marks the error that the study gave.
Structure (SMILES),assay,test system,setting,how to read,measurement,value
N[C@@H]1c2ccccc2OC12CCN(c1cnc3c(N4CCCc5ncccc54)n[nH]c3n1)CC2,,advanced metastatic solid tumour patients,"oral, 10 mg once daily, cycle 1, 21 days",,dose-limiting toxicity,0%
COc1ncccc1-c1cnn2ccc(N3CCN(C(=O)OC(C)C)CC3)nc12,,"mouse nerve ligation model, plasma","oral, 3 mg/kg, 30 min after last dose, repeat dosing day 5",,drug concentration,910 nM
O=C(O)CCCOc1ccc(F)cc1-c1cc(-c2ccccc2C(F)(F)F)n(-c2ccccc2)n1,,"male Crl:CD(SD) rats, prostate","intravenous, 25 µg/kg, 14 d",,relative organ weight,0.12 ± 0.03 g%
O=C(O)CCc1ccccc1,,,"pH 7.4, third measurement",,logD,-0.67
CC(C)=CC1C(C(=O)OC(C#N)c2cccc(Oc3ccccc3)c2)C1(C)C (centres unmarked),item: CYP2C19,"human, age 5 years",,,enzyme contribution to clearance,0.9%
C[C@]1(CO)Cc2ncn(-c3ccc(C#N)c(Cl)c3)c2C(=O)O1,,human,2 mg single dose,,subjects with drug-related orthostatic hypotension,16.7%
COc1cc2c(Oc3ccc4[nH]c(C)cc4c3F)ccnc2cc1OCC1(N)CC1,,paediatric refractory sarcoma patients,12 mg,,ALT elevation incidence,54.5%
CC(=O)c1c(C)c2cnc(Nc3ccc(C4CCN(CCS(C)(=O)=O)CC4)cn3)nc2n(C2CCCC2)c1=O,,HR+/HER2- advanced breast cancer patients,"oral, 50 mg",,patients with any TRAE,100%
CC(C)(O)c1cc(Nc2cc(Oc3cn(C4CC4)nc3C3CCOCC3)ccn2)ccn1,Vomiting,"advanced cancer patients, dose escalation","oral, dose not given, 2 weeks on/off, all causality grade ≥3",,treatment-emergent adverse events,0%
CCc1ccc(CC/C=C/c2ccc3c(c2)C(=O)CC3)cc1,,"Sprague-Dawley rat, male","oral, 450 mg/kg/day, 14 days",,Lymphocyte percentage,80.3%
CO[C@H]1C[C@@H]2CC[C@@H](C)[C@@](O)(O2)C(=O)C(=O)N2CCCC[C@H]2C(=O)O[C@H]([C@H](C)C[C@@H]2CC[C@@H](OC(=O)NCCOCCOCCOCCOCCOCCOCCOCCOCCC(=O)N3CCc4cc(Cn5nc(-c6ccc7oc(N)nc7c6)c6c(N)ncnc65)ccc4C3)[C@H](OC)C2)C[C@@H](O)[C@H](C)/C=C(\C)[C@@H](O)[C@@H](OC)C(=O)[C@H](C)C[C@H](C)/C=C/C=C/C=C/1C,phase 1 dose escalation,advanced solid tumour patients,"intravenous, 8 mg weekly, any grade",,any TRAE incidence,87.5%
NCCCC[C@@H]1NC(=O)[C@@H](Cc2c[nH]c3ccccc23)NC(=O)[C@H](c2ccccc2)NC(=O)[C@@H]2C[C@@H](OC(=O)NCCN)CN2C(=O)[C@H](Cc2ccccc2)NC(=O)[C@H](Cc2ccc(OCc3ccccc3)cc2)NC1=O,,"healthy volunteers, male","1950 µg twice daily, 8.0 h, post hoc",,placebo-corrected QTcF change,5.5 ms
CCOC(=O)C(CC)(CCCSCCOCCOCCOCCOCCNC(=O)OC(C)(C)C)NC(=O)c1ccc(C2CC2)c(Cc2ccc(F)cc2)n1 (centres unmarked),,aqueous buffer with DMSO,,,kinetic solubility,< 0.2 µg/mL
C[C@]1(O)C[C@@](N)(c2ccc(-c3nc4n(c3-c3ccccc3)COc3ccncc3-4)cc2)C1,,"human, advanced or metastatic solid tumours","intermittent, dose escalation total, any grade",,patients with Fatigue TEAE,57.1%
COc1ccc2nc3cc(Cl)ccc3c(Nc3cc(CN4CCCC4)c(O)c(CN4CCCC4)c3)c2n1,,"mouse, blood","oral, 57 mg/kg, tolerability, mean",,alanine aminotransferase,0.42 U/L
O=c1ccc2ccc3occc3c2o1,three freeze-thaw cycles,rat plasma,"8 ng/mL, -70 °C freeze",,accuracy,102%
O=C(NCCN1CCCC1)c1cc(-c2ccc(CN3CCOCC3)cc2)nc2ccc(F)cc12,,"NMRI mouse Plasmodium berghei-infected, blood","oral, 0.3 mg/kg, 24 h, monotherapy",,concentration at 24 h,8 nM
Cn1cc(-c2nc(N[C@@H]3CCCC[C@@H]3N)c(F)c3c2C(=O)NC3)cn1,item: Mouth haemorrhage,patients with relapsed or refractory AML,"oral, dose not given, all doses",,hemorrhagic adverse events,7%
COc1nnc2ccc(N3CCC(c4ccc(OCCN5CCN(C)C(=O)[C@H]5C)cc4)CC3)nn12,,relapsed/refractory solid tumour or lymphoma patients,"oral, dose not given",,serious TEAE,20.6%
O=C(Nc1ccccc1)C1CCN(C(=O)Oc2cccnc2)CC1,,healthy women,"oral, 100 mg, 9 days",,adverse event Anxiety,23.1%
C[C@@H](NC(=O)N1C(=O)[C@H](Cc2ccnc(N)c2)[C@H]1C(=O)O)C1CCCCC1,,healthy adult Chinese volunteers,"continuous intravenous infusion, 0.6 mg/kg/h, 5-day infusion, CTCAE 5.0 grading",,abnormal liver function leading to discontinuation,12.5%
CC(C)[C@H](NC(=O)[C@H](CO)NC(=O)CNC(=O)[C@H](CO)NC(=O)[C@H](CCCNC(=N)N)NC(=O)[C@H](CCC(N)=O)NC(=O)[C@@H]1CCCN1C(=O)[C@@H](NC(=O)[C@H](CCCNC(=N)N)NC(=O)[C@H](CCCNC(=N)N)NC(=O)[C@H](CCCNC(=N)N)NC(=O)[C@H](CCC(N)=O)NC(=O)[C@H](CCCNC(=N)N)NC(=O)[C@H](CCCNC(=N)N)NC(=O)[C@H](CCCCN)NC(=O)[C@H](CCCCN)NC(=O)[C@H](CCCNC(=N)N)NC(=O)CNC(=O)[C@@H](N)Cc1ccc(O)cc1)[C@@H](C)O)C(=O)N[C@@H](CO)C(=O)N[C@@H](CC(N)=O)C(=O)N[C@@H](Cc1ccc(O)cc1)C(=O)N[C@@H](CCCNC(=N)N)C(=O)N[C@@H](CO)C(=O)N[C@@H](CS)C(=O)N[C@@H](CCC(N)=O)C(=O)N[C@@H](CCCNC(=N)N)C(=O)O,,"primary hepatocytes from HFD-fed mice, mouse, high-fat diet-fed",concentration not given,,suppression of glucose production,> 55%
COc1ccc(-c2c(-c3ccc(C#N)c(F)c3)nc(N3CCC(N)CC3)n(C)c2=O)cc1F,item: Anemia,relapsed/refractory marginal zone lymphoma patients,"oral, 60 mg, any grade, dose expansion",,treatment-related adverse event incidence,0%
Clc1ccc(-c2ccccc2)cc1,,"Sprague-Dawley rat female, serum","inhalation, 35 µg/rat, 24 h",,serum gamma-glutamyltransferase,0 U/L
CCN1[C@@H](C(=O)NC23CCC(C(=O)O)(CC2)CC3)[C@H](c2cccc(Cl)c2F)[C@]2(C(=O)Nc3cc(Cl)ccc32)C12CCCCC2,,patients with advanced solid tumours,"oral, 100 mg",,AST elevation incidence,0%
COc1ccc(CCC2CCCC(CCc3ccc(OC)cc3)N2C[C@@H](O)CO)cc1.Cl (stereo in doubt),,rabbit Purkinje fibres,"0.03 µM, cycle length 0.5 s",reference: baseline,APD90 change,9.7 ± 0.9%
O=C1Nc2cc3[nH]nc(-c4ccncc4)c3cc2CN1Cc1ccccc1,item: Hypokalemia,patients with advanced solid tumours,"intravenous, dose not given, schedules 1 and 2",,patients with grade ≥3 TEAE,6%
C=CC(=O)N1CC[C@H](n2nc(C#Cc3cc(OC)cc(OC)c3)c3c(N)ncnc32)C1,item: abdominal discomfort,healthy adults,"oral, grade ≥3, pooled treatments",,TEAE incidence,0%
[O-][S+]1CCc2nc(N3CCC(c4ncc(Cl)cn4)CC3)nc(NC3(CO)CCC3)c21 (centres unmarked),item: Constipation,healthy male humans,"multiple doses, all groups",,adverse event incidence,0%
Nc1nc2cc(-c3ccc4ncc(C(=O)N5CCOCC5)n4c3)ccc2o1,item: Nausea,advanced solid tumour patients,"dose not given, all grades, all doses",,patients with adverse event,61%
COc1cc(Nc2ncc(F)c(Nc3ccc4c(n3)NC(=O)C(C)(C)O4)n2)cc(OC)c1OC,,PBS,"24 h, pH 7.4, 0.1% DMSO",,solubility,2.9 µM
CC(C)[C@@H]1NC(=O)CNC(=O)[C@H](CC(N)=O)NC(=O)[C@H](CCCNC(=N)N)NC(=O)[C@H](Cc2ccc(O)cc2)NC(=O)[C@H](C(C)C)NC(=O)[C@@H](NC(=O)[C@@H](NC(=O)[C@H](CC(N)=O)NC(=O)[C@H](Cc2c[nH]c3ccccc23)NC(=O)[C@H](C)NC(=O)[C@H](Cc2ccccc2)NC(=O)CN)C(C)C)CSSC[C@@H](C(=O)N[C@@H](Cc2cnc[nH]2)C(=O)N[C@@H](CCCNC(=N)N)C(=O)N[C@@H](CCCNC(=N)N)C(=O)N[C@@H](C)C(=O)N[C@@H](CC(N)=O)C(N)=O)NC(=O)[C@H](C(C)C)NC(=O)[C@H](CCCNC(=N)N)NC1=O,HPLC,mouse liver homogenate,"2560 µM, 6.00 h, 50 mg/mL tissue",,remaining peptide,2.64% and 3.03% and 4.77%
